Earlier results that unrelated publications cite.
Compare with care: the assays were run in different laboratories. Several values in a cell are separate wells, animals, samples, runs or records. Numbers after ± are the reported error. Values after ≈ are worked out from the molar mass of the structure shown.
Sequence of UniProt Q8NG66 (whole entry, looked up): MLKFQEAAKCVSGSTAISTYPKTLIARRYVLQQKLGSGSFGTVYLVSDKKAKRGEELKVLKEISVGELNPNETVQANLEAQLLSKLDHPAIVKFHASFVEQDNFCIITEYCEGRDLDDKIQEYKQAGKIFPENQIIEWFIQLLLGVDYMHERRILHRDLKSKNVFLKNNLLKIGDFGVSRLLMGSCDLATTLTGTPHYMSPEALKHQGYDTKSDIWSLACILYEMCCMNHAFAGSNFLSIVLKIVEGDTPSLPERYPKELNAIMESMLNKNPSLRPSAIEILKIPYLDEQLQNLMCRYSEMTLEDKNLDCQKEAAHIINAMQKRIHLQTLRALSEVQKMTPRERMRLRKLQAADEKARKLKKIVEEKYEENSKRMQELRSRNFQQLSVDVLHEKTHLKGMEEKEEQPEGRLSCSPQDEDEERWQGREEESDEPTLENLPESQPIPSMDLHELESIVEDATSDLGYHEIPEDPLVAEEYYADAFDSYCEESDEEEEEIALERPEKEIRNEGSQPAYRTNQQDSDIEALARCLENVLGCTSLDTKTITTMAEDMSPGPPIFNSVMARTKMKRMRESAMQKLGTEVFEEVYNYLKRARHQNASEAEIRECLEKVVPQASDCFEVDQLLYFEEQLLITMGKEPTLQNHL

SMILES | target or system | assay | test system | conditions | scale | quantity | value
Nc1cc(C(F)(F)F)c(-c2nc(N3CCOCC3)nc(N3CCOCC3)n2)cn1 | NEK11 (Homo sapiens, UniProt Q8NG66) | enzyme activity |  | 10 µM | relative to: untreated | remaining activity | 100%
COC(=O)C1=C(C)NC(C)=C(C(=O)OC)C1c1c(C)nc2sc(Cl)cn12 |  | calcium-induced contraction | guinea pig aortic strip | 50 µM, added: K+ 80 mM depolarisation |  | inhibition | 24 ± 1.8%
CNC[C@H](O)[C@@H](O)[C@H](O)[C@H](O)CO.O=C([O-])CN1CCN(CC(=O)[O-])CCN(CC(=O)O)CCN(CC(=O)[O-])CC1.[Gd+3] |  |  | saline | 310 K, 0.47 T |  | relaxivity r1 | 3.6 mM⁻¹ s⁻¹
CCc1cnn2c(NCc3ccc[n+]([O-])c3)cc(N3CCCC[C@H]3CCO)nc12 |  |  | patients with CLL | dose not given |  | partial remission rate | 25 to 40%
Cc1ccc(Nc2nccc(N(C)c3ccc4c(C)n(C)nc4c3)n2)cc1S(N)(=O)=O |  |  | human epithelioid sarcoma patients | dose not given |  | overall response rate | 0 to 22%
N[C@H](C(=O)O)c1cc(O)cc(O)c1 |  |  | hippocampal CA1 Schaffer collateral synapse | concentration not given | relative to: baseline | fEPSP slope | -0.7 ± 1.3%
OCc1ccc(O[C@@H]2O[C@H](CO)[C@@H](O)[C@H](O)[C@H]2O)cc1 |  |  | human surgical patients | iv infusion, 600 mg twice daily | relative to: placebo | relative risk of delirium | 0.54
Cc1cc(-c2ncc(CC(=O)Nc3ccc(-c4cnccn4)cn3)cc2C)ccn1 |  | refers to: Axin2 mRNA | human advanced cancer patients, skin | 10 mg once daily |  | reduction | ~60%
COC[C@@H](c1ccc(C(F)(F)F)cc1)N1CCN(C2(C)CCN(C(=O)c3c(C)ncnc3C)CC2)C[C@@H]1C |  |  | treatment-naive HIV subjects | 75 mg once daily, day 14, monotherapy without ritonavir |  | HIV RNA reduction | 1.34 log10 copies/mL
NC(=S)NN=Cc1ncccc1N |  | PET-CT | cervical cancer patients | dose not given, 3 months post-therapy, phase II, added: cisplatin chemoradiation |  | complete metabolic response | 96%
CC(c1cc2ccccc2s1)N(O)C(N)=O (stereo not drawn) |  |  | Sprague Dawley rat | dose not given, 10 days, added: vancomycin |  | nephrotoxicity incidence | < 10%
O=C(NCc1ncccc1F)c1coc(CCNCCc2nc3ccccc3[nH]2)n1 |  | refers to: serum iron | healthy human, serum | dose not given | mean level | time to rebound above baseline | ≤ 24 h
C[N+]1(C)CCC(OC(=O)C(O)(c2ccccc2)C2CCCC2)C1 (stereo not drawn) |  |  | COPD patients | inhaled, 50 µg once daily, 24 h postdose, dosing day 182 | relative to: baseline | placebo-corrected trough FEV1 change | 113 mL
Nc1ccn([C@@H]2CS[C@H](CO)O2)c(=O)n1 |  |  | chronic hepatitis B patients | dose not given, 12 months, added: entecavir | relative to: baseline | HBsAg reduction | 0.08 log10 IU/mL
O=C(c1cccnc1-c1ccncc1)N1CCC(O)(Cc2ccccc2)CC1 |  |  | human adults | dose not given, open-label maintenance phase |  | seizure frequency reduction | 36.4%
COc1cccc2c1C(=O)c1c(O)c3c(c(O)c1C2=O)C[C@@](O)(C(=O)CO)C[C@@H]3O[C@H]1C[C@H](N)[C@H](O)[C@H](C)O1 |  |  | human epithelioid sarcoma patients | dose not given |  | overall response rate | 0 to 22%
CCNCCc1ccc(CN(CC)c2cc(OC)ccc2[C@@H]2CCc3cc(O)ccc3C2)cc1 |  |  | human, ER-positive HER2-negative breast cancer, ESR1 mutation | dose not given |  | median progression-free survival | 3.65 months
Cc1nccnc1C |  |  | human, water |  |  | odour detection threshold | 2500 µg/kg
O=C(O)C(O)Cc1ccc(O)c(O)c1 (stereo not drawn) |  | anti-inflammatory effect | rat CLP sepsis | intragastric |  | effective dose | 5 mg/kg
Cc1ccccc1C(=O)Nc1ccc(C(=O)N2CCCC(O)c3cc(Cl)ccc32)c(C)c1 (stereo not drawn) |  |  | RC/RC mouse | dose not given, long-term treatment from 6 months |  | decrease in kidney weight/body weight ratio | ~10%
Cc1cnccn1 |  |  | human, water |  |  | odour detection threshold | 60000 µg/kg
CCCCCC1OC1CC=CCC=CCC=CCCCC(=O)O (stereo not drawn) |  |  | mouse, Langendorff heart, constant flow | dose not given |  | cardiac effect | no effect
COC(=O)C1=C(C)NC(C)=C(C(=O)OC)C1c1c(-c2cccc(C(F)(F)F)c2)nc2sccn12 |  | calcium-induced contraction | guinea pig aortic strip | 50 µM, added: K+ 80 mM depolarisation |  | inhibition | 27 ± 1.3%
CNC(=O)c1ccc(Nc2ncc(C(F)(F)F)c(NCc3nccnc3N(C)S(C)(=O)=O)n2)cc1 |  |  | patients with KRAS mutant NSCLC | dose not given, 12 weeks | relative to: patients | patients meeting progression-free survival endpoint | 28%
CCc1cc2c(cc1CC)CC(NC[C@H](O)c1ccc(O)c3[nH]c(=O)ccc13)C2 |  |  | COPD patients | inhaled, 75 µg once daily, 24 h postdose, dosing day 1 | relative to: baseline | placebo-corrected trough FEV1 change | 85 mL
CC(F)(F)c1cc(F)ccc1-c1sc2cc(O)ccc2c1Oc1ccc(/C=C/C(=O)O)cc1 |  |  | MCF7, mouse, MCF7 orthotopic xenograft | 10 mg/kg once daily, day 62, single agent |  | %T/C | 13%

SMILES | target or system | assay | test system | conditions | scale | quantity | value
COCCCOc1ccnc(C[S+]([O-])c2nc3ccccc3[nH]2)c1C (stereo not drawn) |  | gastric acid secretion | human | concentration not given |  | onset of antisecretory effect | ≤ 1 h
CC(=O)Oc1ccc(C(c2ccc(OC(C)=O)cc2)c2ccccn2)cc1 |  | mitochondrial membrane potential disruption, Tox21 HTS |  |  |  | AC50 | 8.7 µM
COC(=O)[C@H](Cc1ccccc1)NC(=O)[C@@H](N)CC(=O)O |  | sensory evaluation | human sensory panel, water |  | relative to: sucrose | sweetness potency | 200 × sucrose
CC(=O)O[C@@]12CO[C@@H]1C[C@H](O)[C@@]1(C)C(=O)[C@H](O)C3=C(C)[C@@H](OC(=O)[C@H](O)[C@@H](NC(=O)OC(C)(C)C)c4ccccc4)C[C@@](O)([C@@H](OC(=O)c4ccccc4)[C@H]21)C3(C)C |  |  | human, advanced NSCLC, after chemotherapy and checkpoint inhibitor | dose not given |  | radiographic response rate | < 15%
COc1cc2c(Oc3ccc4[nH]c(C)cc4c3F)ccnc2cc1OCC1(N)CC1 |  |  | metastatic soft tissue sarcoma patients | dose not given | relative to: placebo | reduction in progression risk | 67%
Cc1nn(C)cc1S(=O)(=O)NC(=O)c1ccc(-n2ccc(OCC(C)(C)C(F)(F)F)n2)nc1N1C[C@@H](C)CC1(C)C |  | clinical exposure-response, refers to: sweat chloride | human, cystic fibrosis | added: tezacaftor/ivacaftor |  | EC50 | 0.4 µg/mL (≈ 0.669 µM)
Cc1cc(-c2nccc3c2ccn3CC(=O)Nc2ccc(-c3cnccn3)cn2)ccn1 |  |  | mouse, hepatic fibrosis model | 5 mg/kg once daily, days 14-32 |  | hepatic hydroxyproline content | decreased
Cc1cnc(C)c(C)n1 |  |  | human, water |  |  | odour detection threshold | 23 µg/kg
CN(C)c1ccc2c(c1)C#Cc1ccc([N+](C)(C)C)cc1C#C2.O=C([O-])C(F)(F)F |  | UV spectroscopy | methanol | room temperature, added: benzyl azide |  | second-order rate constant | 0.0973 M⁻¹ s⁻¹ and 0.0976 M⁻¹ s⁻¹
OC[C@H]1O[C@H](O[C@]2(CCl)O[C@H](CCl)[C@@H](O)[C@@H]2O)[C@H](O)[C@@H](O)[C@H]1Cl |  | sensory evaluation | human sensory panel, water |  | relative to: sucrose 5 % w/v | relative sweetness | 6
CC(=O)O.NC(=O)c1cnc(N[C@@H]2CCCC[C@@H]2N)nc1Nc1cccc(-n2nccn2)c1 |  | hind paw inflammation | rat, collagen-induced arthritis | 5 mg/kg |  | inhibition | 31%
COc1cc2c(Nc3ccc(Cl)c(Cl)c3F)ncnc2cc1OC[C@@H]1C[C@@H]2CN(C)C[C@@H]2C1 |  |  | treatment-naive patients, advanced EGFR-mutant NSCLC | dose not given, phase II trial |  | progression-free survival | 9.3 months
COC(=O)C1=C(C)NC(C)=C(C(=O)OC)C1c1c(Cl)nc2scc(C)n12 |  | calcium-induced contraction | guinea pig aortic strip | 50 µM, added: K+ 80 mM depolarisation |  | inhibition | 47 ± 1.1%
CC1(C)CCC(CN2CCN(c3ccc(C(=O)NS(=O)(=O)c4ccc(NCC5CCOCC5)c([N+](=O)[O-])c4)c(Oc4cnc5[nH]ccc5c4)c3)CC2)=C(c2ccc(Cl)cc2)C1 |  |  | human, newly diagnosed AML | concentration not given, added: azacitidine |  | CR with partial hematologic recovery rate | 24%
Nc1cccc2c1C(=O)N(C1CCC(=O)NC1=O)C2=O (stereo not drawn) |  |  | relapsed refractory multiple myeloma patients | dose not given |  | partial response or better rate | 51%
COc1nccnc1CC(C)C |  |  | human, water |  |  | odour detection threshold | 0.005 µg/kg
Cc1oncc1C(=O)Nc1ccc(C(F)(F)F)cc1 |  | antioxidant response element activation, Tox21 HTS |  |  |  | AC50 | 23.5 µM
C=CC(=O)Nc1cc(Nc2nccc(-c3cn(C)c4ccccc34)n2)c(OC)cc1N(C)CCN(C)C |  |  | patients with EGFR-mutant NSCLC | dose not given, first-line clinical trial |  | objective response rate | 80%
Cc1ccc(C)c(OCCCC(C)(C)C(=O)O)c1 |  |  | HIV-negative hypertriglyceridemic individuals, plasma | 600 mg once daily, 9 weeks, average |  | triglyceride reduction | 16%
O=C(NC[C@H]1CN(c2ccc(N3CCOCC3=O)cc2)C(=O)O1)c1ccc(Cl)s1 |  | point-of-care | dog, whole blood | 1 mg/kg/day |  | prothrombin time | no effect
CN(C)c1cccc2c1C#Cc1cccc(N(C)C)c1C#C2 |  | SPAAC cycloaddition, substrate, UV spectroscopy | methanol | room temperature, mean of 2 runs, added: benzyl azide 100 mM |  | second-order rate constant | 0.039 M⁻¹ s⁻¹ and 0.0387 M⁻¹ s⁻¹
C=Cc1cnccn1 |  |  | human, water |  |  | odour detection threshold | 700 µg/kg
COc1cc(NC(=O)CCN2CCC(OC(=O)Nc3ccccc3-c3ccccc3)CC2)c(Cl)cc1CNC[C@H](O)c1ccc(O)c2[nH]c(=O)ccc12 |  |  | COPD patients | inhaled, 100 µg once daily, 24 h postdose, dosing day 1 | relative to: baseline | placebo-corrected trough FEV1 change | 96 mL
COc1ccccc1[C@H](Cn1c(=O)n(C(C)(C)C(=O)O)c(=O)c2c(C)c(-c3ncco3)sc21)OC1CCOCC1 |  | hepatic de novo lipogenesis, inhibitor | rat |  |  | ED50 | 0.18 mg/kg
C=C1[C@H](CO)[C@@H](O)C[C@@H]1n1cnc2c(=O)[nH]c(N)nc21 |  |  | chronic hepatitis B patients | dose not given, 6 months, added: lamivudine | relative to: baseline | HBsAg reduction | 0.06 log10 IU/mL

Repeated from above:
SMILES | target or system | assay | test system | conditions | scale | quantity | value
C[N+]1(C)CCC(OC(=O)C(O)(c2ccccc2)C2CCCC2)C1 (stereo not drawn) |  |  | COPD patients | inhaled, 50 µg once daily, 24 h postdose, dosing day 182 | relative to: baseline | placebo-corrected trough FEV1 change | 113 mL
CCNCCc1ccc(CN(CC)c2cc(OC)ccc2[C@@H]2CCc3cc(O)ccc3C2)cc1 |  |  | human, ER-positive HER2-negative breast cancer, ESR1 mutation | dose not given |  | median progression-free survival | 3.65 months
CN(C)c1cccc2c1C#Cc1cccc(N(C)C)c1C#C2 |  | SPAAC cycloaddition, substrate, UV spectroscopy | methanol | room temperature, mean of 2 runs, added: benzyl azide 100 mM |  | second-order rate constant | 0.039 M⁻¹ s⁻¹ and 0.0387 M⁻¹ s⁻¹
CC(=O)O[C@@]12CO[C@@H]1C[C@H](O)[C@@]1(C)C(=O)[C@H](O)C3=C(C)[C@@H](OC(=O)[C@H](O)[C@@H](NC(=O)OC(C)(C)C)c4ccccc4)C[C@@](O)([C@@H](OC(=O)c4ccccc4)[C@H]21)C3(C)C |  |  | human, advanced NSCLC, after chemotherapy and checkpoint inhibitor | dose not given |  | radiographic response rate | < 15%
Cc1ccccc1C(=O)Nc1ccc(C(=O)N2CCCC(O)c3cc(Cl)ccc32)c(C)c1 (stereo not drawn) |  |  | RC/RC mouse | dose not given, long-term treatment from 6 months |  | decrease in kidney weight/body weight ratio | ~10%
O=C(O)C(O)Cc1ccc(O)c(O)c1 (stereo not drawn) |  | anti-inflammatory effect | rat CLP sepsis | intragastric |  | effective dose | 5 mg/kg
